Published values from different studies.
Each numbered part is a random draw from the data of one study; scales do not carry over between parts.

Sample 1
Cell line: A-375
Concentration: 100 µM
Time: 36 h
Compound	viability [%]
C[N+]1(C)CCC(=C(c2ccccc2)c2ccccc2)CC1	88.6
CN(Cc1cc(Br)cc(Br)c1N)C1CCCCC1	5.79
Cc1[nH]c(=O)c(C#N)cc1-c1ccncc1	113
CC(C(=O)O)c1ccc(CC2CCCC2=O)cc1 (stereo not drawn)	119
NCCS	122
N=C(N)c1ccc2cc(OC(=O)c3ccc(N=C(N)N)cc3)ccc2c1	68.8

Sample 2
Target: Cyclin-dependent kinase 2, with cyclin A (CDK2, Homo sapiens, UniProt P24941)
Observed: enzyme activity
Action: inhibitor
Concentration: 0.5 µM
Relative to: control
SMILES	remaining activity [%]
Cn1sc(=O)n(Cc2ccccc2)c1=O	100
O=c1c2ccccc2[nH]c(=S)n1CCN1CCC(=C(c2ccc(F)cc2)c2ccc(F)cc2)CC1	99.9
Cn1c2ccccc2c2c3c(c4c5ccccc5n(CCC#N)c4c21)CNC3=O	20.8
COc1cc2ncnc(Nc3ccc(Oc4ccccc4)cc3)c2cc1OC	100
CN(C)c1ccc(C=C2C(=O)Nc3ccccc32)cc1	102
O=C1NC(=O)C(c2cn(CCCO)c3ncccc23)=C1c1cnccn1	94.8
Oc1ccc(-c2nc(-c3ccncc3)c(-c3ccc(F)cc3)[nH]2)cc1	101
COc1cc2nccc(Oc3ccc(NC(=S)NC(=O)c4ccccc4C)cc3)c2cc1OC	94.2
NCCNc1ncc(C(N)=O)c(Nc2cccc(C(F)(F)F)c2)n1	97.6
COc1ccc(C(=O)Nc2sc3c(c2C(N)=O)CCCC3)cc1OC	103
OCC(O)CCON=C1C(c2c(O)[nH]c3ccccc23)=Nc2ccccc21 (stereo not drawn)	15.5
Nc1ncnc2n[nH]c(Nc3ccc(F)cc3)c12	88.7
CNC(=O)c1cc(Oc2ccc(NC(=O)Nc3ccc(Cl)c(C(F)(F)F)c3)cc2)ccn1	99.7
Cc1ccc(NC(=O)c2ccc(CN3CCN(C)CC3)cc2)cc1Nc1nc(-c2cccnc2)cs1	94.7

Sample 3
Target: Sigma intracellular receptor 2 (TMEM97, Homo sapiens, UniProt Q5BJF2)
Chain of UniProt Q5BJF2 (whole entry, looked up): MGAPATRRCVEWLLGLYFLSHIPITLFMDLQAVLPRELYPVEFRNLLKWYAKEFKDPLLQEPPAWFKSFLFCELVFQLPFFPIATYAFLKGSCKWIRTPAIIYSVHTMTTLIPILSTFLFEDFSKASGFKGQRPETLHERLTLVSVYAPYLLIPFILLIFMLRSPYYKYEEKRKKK
Observed: binding
Method: radioligand binding
Concentration: 10 µM
SMILES	inhibition
CN(C)C(=O)Cn1cc(-c2nc([C@@](C)(c3ccc(-c4cnc(N)nc4)cc3)C3CC3)no2)cn1	10.1%
O=C1CCc2cc(Nc3cc(OC4CCOCC4)c([N+](=O)[O-])cc3Cl)ccc2N1	27.1%
Cc1nccc(COC(=O)N2C[C@@H]3[C@@H](CNC(=O)c4ccc5[nH]nnc5c4)[C@@H]3C2)n1	-2.9%
O=C(Nc1cccnn1)N1CCC(=Cc2cccc(Oc3ccc(C(F)(F)F)cn3)c2)CC1	91.3%
CC1=C(C#N)[C@@H](c2ccc3[nH]nc(C)c3c2)C(C#N)=C(c2ccc(Cl)cc2)N1	23.4%
CCOCCn1cc(C(=O)Nc2ccc(-n3nc(-c4cccnc4)cc3C(F)(F)F)cn2)ccc1=O	-2.98%
COCc1nc2cnc3cc(-c4c(C)noc4C)c(OC[C@H]4CCNC4)cc3c2n1[C@H](C)c1ccccc1	23%
CC(=O)N1CCC(c2ccc(C(=O)NC(=N)N)cc2C(F)(F)F)CC1	-6.34%

Sample 4
Host: human
Sample: microsomes or S9
Concentration: 2 µM
Time: 0.5 h
Structure (SMILES)	remaining compound [%]
O=C1CCc2cc(C(=O)N3CCc4sc(Br)cc4C3)c(F)cc2N1	25.5
COCCOc1cc(=O)n2c(c1C(=O)N1CCC(Cc3ccccc3)CC1)CCOCC2	46.7
Oc1ccccc1-c1nc(-c2ccccc2O)n(-c2ccc(Br)cc2)n1	89.9
CCn1c2ccccc2n2cc(-c3ccc4c(c3)OCO4)nc12	0.144
Cc1nc(NCC(O)CO)nc(C)c1CC(C)C (stereo not drawn)	> 99.9
Cn1cnnc1-c1nn(C)c2c1CN(C(=O)c1n[nH]c3c1CCCCCC3)CC2	41.3
O=C(Nc1ccc2[nH]ncc2c1)c1csc2ccccc12	77.1
O=c1[nH]c2cc(S(=O)(=O)N3CC[C@H]4[C@H](C3)OCc3cnnn34)ccc2o1	84.3

A few entries again (sample 3):
SMILES	inhibition
O=C1CCc2cc(Nc3cc(OC4CCOCC4)c([N+](=O)[O-])cc3Cl)ccc2N1	27.1%
Cc1nccc(COC(=O)N2C[C@@H]3[C@@H](CNC(=O)c4ccc5[nH]nnc5c4)[C@@H]3C2)n1	-2.9%
O=C(Nc1cccnn1)N1CCC(=Cc2cccc(Oc3ccc(C(F)(F)F)cn3)c2)CC1	91.3%
CC1=C(C#N)[C@@H](c2ccc3[nH]nc(C)c3c2)C(C#N)=C(c2ccc(Cl)cc2)N1	23.4%
CCOCCn1cc(C(=O)Nc2ccc(-n3nc(-c4cccnc4)cc3C(F)(F)F)cn2)ccc1=O	-2.98%
COCc1nc2cnc3cc(-c4c(C)noc4C)c(OC[C@H]4CCNC4)cc3c2n1[C@H](C)c1ccccc1	23%
